Experimental data collected from several papers.
Numbered parts are unrelated; each lists some results of a single study. Changes are numbered by the printed parent chain.
UniProt Q9C5W9, sequence (whole entry, looked up): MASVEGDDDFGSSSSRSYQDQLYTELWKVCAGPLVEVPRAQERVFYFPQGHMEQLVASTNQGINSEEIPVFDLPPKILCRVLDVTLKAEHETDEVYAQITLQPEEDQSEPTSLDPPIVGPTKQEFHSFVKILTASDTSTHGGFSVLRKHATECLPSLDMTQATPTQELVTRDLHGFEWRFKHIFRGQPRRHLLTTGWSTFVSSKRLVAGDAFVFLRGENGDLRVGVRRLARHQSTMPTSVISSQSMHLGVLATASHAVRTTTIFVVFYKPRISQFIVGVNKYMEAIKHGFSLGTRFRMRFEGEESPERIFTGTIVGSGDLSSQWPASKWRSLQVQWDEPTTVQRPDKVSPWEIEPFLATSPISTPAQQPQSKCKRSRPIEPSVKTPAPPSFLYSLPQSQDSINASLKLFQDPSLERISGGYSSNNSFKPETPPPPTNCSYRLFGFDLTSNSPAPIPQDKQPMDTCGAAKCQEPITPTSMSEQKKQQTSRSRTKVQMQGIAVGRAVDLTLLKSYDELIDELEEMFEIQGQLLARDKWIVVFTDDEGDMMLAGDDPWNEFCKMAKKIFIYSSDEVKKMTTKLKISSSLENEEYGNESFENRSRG
UniProt Q9XED8, sequence (whole entry, looked up): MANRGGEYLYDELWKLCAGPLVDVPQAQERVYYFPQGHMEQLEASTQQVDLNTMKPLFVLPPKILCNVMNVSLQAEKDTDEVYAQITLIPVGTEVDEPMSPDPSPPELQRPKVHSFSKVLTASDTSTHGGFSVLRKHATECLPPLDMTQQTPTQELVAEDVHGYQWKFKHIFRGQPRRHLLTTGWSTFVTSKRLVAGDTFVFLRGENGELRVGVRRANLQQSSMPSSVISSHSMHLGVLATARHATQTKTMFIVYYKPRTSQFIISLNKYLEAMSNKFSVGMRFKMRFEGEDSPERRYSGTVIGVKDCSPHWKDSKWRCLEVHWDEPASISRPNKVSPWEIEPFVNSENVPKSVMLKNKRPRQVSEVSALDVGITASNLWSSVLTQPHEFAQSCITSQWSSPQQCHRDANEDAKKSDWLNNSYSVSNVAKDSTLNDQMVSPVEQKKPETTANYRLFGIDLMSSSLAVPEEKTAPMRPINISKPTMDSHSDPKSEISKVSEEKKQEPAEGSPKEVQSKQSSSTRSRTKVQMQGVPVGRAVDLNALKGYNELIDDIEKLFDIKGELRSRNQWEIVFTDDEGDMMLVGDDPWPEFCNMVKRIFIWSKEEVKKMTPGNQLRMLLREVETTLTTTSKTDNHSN
UniProt Q8RYC8, sequence (whole entry, looked up): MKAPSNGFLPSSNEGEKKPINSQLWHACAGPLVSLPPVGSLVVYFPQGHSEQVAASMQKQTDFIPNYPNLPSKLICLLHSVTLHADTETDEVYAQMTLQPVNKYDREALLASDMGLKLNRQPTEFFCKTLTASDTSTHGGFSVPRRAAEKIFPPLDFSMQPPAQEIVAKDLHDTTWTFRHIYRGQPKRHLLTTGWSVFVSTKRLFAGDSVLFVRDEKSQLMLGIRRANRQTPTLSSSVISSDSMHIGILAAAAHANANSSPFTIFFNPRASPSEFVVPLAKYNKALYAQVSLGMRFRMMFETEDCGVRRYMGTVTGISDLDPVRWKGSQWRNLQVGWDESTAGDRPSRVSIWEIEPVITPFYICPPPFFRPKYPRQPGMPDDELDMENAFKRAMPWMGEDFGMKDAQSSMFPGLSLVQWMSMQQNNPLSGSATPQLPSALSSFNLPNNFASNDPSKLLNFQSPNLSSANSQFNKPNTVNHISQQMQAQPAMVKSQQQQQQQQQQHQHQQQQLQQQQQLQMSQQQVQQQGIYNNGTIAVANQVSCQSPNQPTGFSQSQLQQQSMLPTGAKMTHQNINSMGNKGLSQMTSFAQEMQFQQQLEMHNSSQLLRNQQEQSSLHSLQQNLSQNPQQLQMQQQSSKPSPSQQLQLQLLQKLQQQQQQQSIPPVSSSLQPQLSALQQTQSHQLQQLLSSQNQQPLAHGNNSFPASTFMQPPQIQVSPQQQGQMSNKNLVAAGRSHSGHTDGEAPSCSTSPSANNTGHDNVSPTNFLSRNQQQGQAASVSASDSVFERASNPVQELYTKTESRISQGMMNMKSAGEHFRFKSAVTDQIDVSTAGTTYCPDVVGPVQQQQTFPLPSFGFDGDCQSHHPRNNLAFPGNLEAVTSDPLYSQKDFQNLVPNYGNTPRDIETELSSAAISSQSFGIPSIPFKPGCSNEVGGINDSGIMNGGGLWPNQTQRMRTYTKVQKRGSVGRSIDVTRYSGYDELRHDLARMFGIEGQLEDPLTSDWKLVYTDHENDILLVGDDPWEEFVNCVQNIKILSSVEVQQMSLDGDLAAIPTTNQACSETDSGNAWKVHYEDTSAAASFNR
UniProt Q84WU6, sequence (whole entry, looked up): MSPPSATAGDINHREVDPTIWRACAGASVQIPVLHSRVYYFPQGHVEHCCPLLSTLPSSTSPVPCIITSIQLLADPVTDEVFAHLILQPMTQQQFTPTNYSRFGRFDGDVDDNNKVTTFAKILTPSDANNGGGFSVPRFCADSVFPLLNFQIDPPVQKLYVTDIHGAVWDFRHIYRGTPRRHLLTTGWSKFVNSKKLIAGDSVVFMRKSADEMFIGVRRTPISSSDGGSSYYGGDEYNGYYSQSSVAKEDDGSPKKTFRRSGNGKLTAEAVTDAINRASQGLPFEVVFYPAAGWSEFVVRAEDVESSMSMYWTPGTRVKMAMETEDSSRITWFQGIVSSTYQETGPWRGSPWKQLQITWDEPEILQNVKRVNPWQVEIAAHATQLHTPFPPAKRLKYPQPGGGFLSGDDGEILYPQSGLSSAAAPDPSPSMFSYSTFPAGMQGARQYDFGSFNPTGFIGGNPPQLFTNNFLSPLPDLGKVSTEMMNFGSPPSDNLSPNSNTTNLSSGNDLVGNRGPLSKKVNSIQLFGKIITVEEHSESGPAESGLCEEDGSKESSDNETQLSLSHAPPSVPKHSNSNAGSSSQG
UniProt Q8H174, sequence (whole entry, looked up): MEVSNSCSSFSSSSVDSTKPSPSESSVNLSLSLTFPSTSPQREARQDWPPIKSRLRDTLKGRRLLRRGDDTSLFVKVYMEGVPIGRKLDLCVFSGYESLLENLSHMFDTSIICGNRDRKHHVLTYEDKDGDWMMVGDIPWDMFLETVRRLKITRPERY
UniProt Q93WC4, sequence (whole entry, looked up): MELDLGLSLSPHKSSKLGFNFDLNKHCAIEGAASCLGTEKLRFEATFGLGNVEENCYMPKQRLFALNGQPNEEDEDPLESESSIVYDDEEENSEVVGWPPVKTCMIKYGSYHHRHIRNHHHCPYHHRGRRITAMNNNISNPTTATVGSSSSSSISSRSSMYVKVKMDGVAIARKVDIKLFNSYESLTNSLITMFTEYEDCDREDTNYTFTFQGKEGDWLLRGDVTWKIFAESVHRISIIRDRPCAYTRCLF
UniProt Q94JM3, sequence (whole entry, looked up): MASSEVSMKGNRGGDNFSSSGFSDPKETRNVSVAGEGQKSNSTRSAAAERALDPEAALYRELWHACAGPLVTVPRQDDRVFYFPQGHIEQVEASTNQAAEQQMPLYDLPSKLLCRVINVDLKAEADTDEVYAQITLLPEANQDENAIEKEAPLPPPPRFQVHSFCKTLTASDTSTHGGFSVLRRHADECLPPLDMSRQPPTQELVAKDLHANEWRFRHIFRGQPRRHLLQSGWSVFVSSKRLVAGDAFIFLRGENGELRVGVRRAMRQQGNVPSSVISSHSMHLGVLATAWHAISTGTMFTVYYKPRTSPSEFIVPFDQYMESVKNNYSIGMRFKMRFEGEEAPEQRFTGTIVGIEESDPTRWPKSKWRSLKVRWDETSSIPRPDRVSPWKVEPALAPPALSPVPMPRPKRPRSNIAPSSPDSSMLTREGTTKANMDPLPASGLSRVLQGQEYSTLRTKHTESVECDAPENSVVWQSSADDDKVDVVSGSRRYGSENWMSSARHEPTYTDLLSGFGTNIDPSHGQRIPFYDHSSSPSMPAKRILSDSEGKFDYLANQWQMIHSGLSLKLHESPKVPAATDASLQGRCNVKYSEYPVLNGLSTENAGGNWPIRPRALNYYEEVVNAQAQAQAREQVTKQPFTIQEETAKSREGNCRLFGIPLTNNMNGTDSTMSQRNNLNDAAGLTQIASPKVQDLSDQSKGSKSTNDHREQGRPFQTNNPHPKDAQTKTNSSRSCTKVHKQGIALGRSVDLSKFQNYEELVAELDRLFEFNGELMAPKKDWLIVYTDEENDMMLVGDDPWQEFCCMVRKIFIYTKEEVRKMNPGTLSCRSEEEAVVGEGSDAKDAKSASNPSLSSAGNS

Series 1 — method: RNA Bind-n-Seq; form: RNA; sample: in vitro; concentration: 365 nM; reference: no-protein control; direction: higher = stronger binding
Target: RNA binding protein fox-1 homolog 2, RRM domain, GST-SBP tag (RBFOX2, Homo sapiens, UniProt O43251-10, residues 100-194)
Notes: natural RNA segment, single round, ends assumed
Construct (chain): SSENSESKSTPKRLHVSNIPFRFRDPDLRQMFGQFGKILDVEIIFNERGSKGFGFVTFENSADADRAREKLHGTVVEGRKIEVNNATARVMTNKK
Oligonucleotide	RBNS enrichment (R)
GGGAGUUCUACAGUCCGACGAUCCCCCUACCCAUUUUCUCUGGAGGUGUCCAGCCUCUUCCAACCCCCUCCCCAACUCUAGGGGAGAGCUGCUAGUGUGGAAAAUGACUGUUUUAUAAGGAAAUGGAGAAAAAUGGAAUUCUCGGGUGCCAA	1.07
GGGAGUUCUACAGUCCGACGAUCACCAAGGAGACCCCCAAGGGUACCACUGCCUGAGGACAGCAGAGAGAACCUGCCUCCCUCCCAGAAGUCACAGCACCUGCUUCUCAGCUCCUCAUGUGUGCAUGUGUGCCUGGAAUUCUCGGGUGCCAA	1
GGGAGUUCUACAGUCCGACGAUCCAGUGGGAACCUUCAUGCCUUAUUUAUUUCUAAUGGGUAAAGGGGUUUUCUUACCAAGCAUCCCUGACCUCCUGGAGACACCACCUGCUUUCCGGGCGGCACUGUGAUGGUGGAAUUCUCGGGUGCCAA	0.291
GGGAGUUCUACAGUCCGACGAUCGCAGGCAGGGCAAAGGUCAAGACUGUGGUAUUGGGGUCUUUUGGCUCUGAAGGAUCCUGGAACCACUGAUUUUGGUUUAUUCCCUCCAGGGUCUAAAGAGAACAAGAGGUUGGAAUUCUCGGGUGCCAA	0.472
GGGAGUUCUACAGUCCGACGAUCGUGUGUGAUUUAGUGACUGAGCCUGCCCUUCUGUUUGUCAGUUACGUUUCUACCCUUCAAUUAGCUGCACUGUUUUCUAAUGUGCUGUAGAGUUUGGAAAUAAUUUAUGCUGGAAUUCUCGGGUGCCAA	1.53
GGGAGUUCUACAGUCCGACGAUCCCUGUUGAAGUCACCGAGUCAGCUGAAUAAAGACUGCGCACAGGAGAAUUGCCCUAUACCUGAGCCUCAACCUUCUGGGGGAAGGGAACUAGAUAACAUGCUUUGUGUGUUGGAAUUCUCGGGUGCCAA	0.462
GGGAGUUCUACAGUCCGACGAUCCUAUAGACUGUUUUAAGAGUUUUGGGGUUUUUUUAAUUGGGUGGUUUGUAACCCCUUCAGCCUAGCCUCUCUGCCCAUUUAUUUCCAACCCCAACAGACACUGACAGGGUUGGAAUUCUCGGGUGCCAA	0.374
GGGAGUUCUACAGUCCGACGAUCGAGGGGGAAAUGCCUUUGCAGCUCCAUUUAGUUGUUUGGAGACUGCUCCUGGGAUGCUAACCUGAUGGCCAUAGACACGGUGGGCUGGAGGCGUGGCUGGAUCUGCCCAAUGGAAUUCUCGGGUGCCAA	0.779
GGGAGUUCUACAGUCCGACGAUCACUGGGCUGGCCUCGAACUCAGAGAUCUGCCUGCCCUUGCUGGGAUCAGAGGUGUGCACCACCACUGCCCAGCUUGAAGUGUGUCAUUUAAAACCACUGUUUAAUAACCCUGGAAUUCUCGGGUGCCAA	0.452
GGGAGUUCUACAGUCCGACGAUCUUCUUCCUGUUCACCCUGGUGGUGUAUGGGUGAGGUGGGAAGGUGACCCCCCCCCCAAAUAUAUAUCAGCCCAACAGCCCUAAGUCUCCUCCUUUAUUAUUAGGAAAACCUGGAAUUCUCGGGUGCCAA	0.492
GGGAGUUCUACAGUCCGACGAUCCUUCUGUACAUGUUUUCCCCUUUGGUGAUACCCAGUGGUCCCAGCUAAUGGUGUCUGAGCAUAGUCAAGAAUACAACUCCUUUCACAUAAAGAUCCCCUACAGCAUUUCUUGGAAUUCUCGGGUGCCAA	0.856
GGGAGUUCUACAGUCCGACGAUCUGAUAUGCAGAAGUCACUUUUUUUAUCAGGCUUUAUUCUCCUUACAAAGCCACAGUUUAACUGUCUGCAACAGUUGGUUUAUGUUAAUGAUAGACAAAUACCCAGUGUUUUGGAAUUCUCGGGUGCCAA	0.724

Series 2 — Molecule: B1 (IAA14); method: two-hybrid; direction: higher = firmer interaction
B1: IAA14 (Arabidopsis thaliana, UniProt Q38832); chain MNLKETELCLGLPGGTETVESPAKSGVGNKRGFSETVDLKLNLQSNKQGHVDLNTNGAPKEKTFLKDPSKPPAKAQVVGWPPVRNYRKNVMANQKSGEAEEAMSSGGGTVAFVKVSMDGAPYLRKVDLKMYTSYKDLSDALAKMFSSFTMGSYGAQGMIDFMNESKVMDLLNSSEYVPSYEDKDGDWMLVGDVPWPMFVESCKRLRIMKGSEAIGLAPRAMEKFKNRS
partner	notes	reference	positive tests
ARF18 482-602 (Arabidopsis thaliana, UniProt Q9C5W9)	–	out of 4 tests	1
ARF17 (Arabidopsis thaliana, UniProt Q84WU6)	weak activation fusion	out of 4 tests	0
ARF19 948-1086 (Arabidopsis thaliana, UniProt Q8RYC8)	–	out of 4 tests	4
IAA29 (Arabidopsis thaliana, UniProt Q93WC4)	–	out of 4 tests	0
IAA31 (Arabidopsis thaliana, UniProt Q8H174)	–	out of 2 tests	1
ARF2 727-859 (Arabidopsis thaliana, UniProt Q94JM3)	–	out of 4 tests	0
ARF9 519-638 (Arabidopsis thaliana, UniProt Q9XED8)	weak activation fusion	out of 4 tests	1

Series 3 — method: protein-binding microarray; form: double-stranded DNA, one strand shown; sample: in vitro; concentration: 2200 nM top; notes: 60-bp whole probe; together with: salmon DNA 0.4 mg/ml; reference: random background probes; direction: higher = stronger binding; all sequences stand within: GCCTAGCAC … GTCTTGATTCGCTTGACGCTGCTG
Target: Interferon regulatory factor 7, full length, phosphomimetic (IRF7, Homo sapiens, UniProt Q92985, residues 1-503, S471D/S472D/S475D/S476D/S477D/S483D/S484D/S487D)
UniProt Q92985, sequence (whole entry, unmodified, looked up): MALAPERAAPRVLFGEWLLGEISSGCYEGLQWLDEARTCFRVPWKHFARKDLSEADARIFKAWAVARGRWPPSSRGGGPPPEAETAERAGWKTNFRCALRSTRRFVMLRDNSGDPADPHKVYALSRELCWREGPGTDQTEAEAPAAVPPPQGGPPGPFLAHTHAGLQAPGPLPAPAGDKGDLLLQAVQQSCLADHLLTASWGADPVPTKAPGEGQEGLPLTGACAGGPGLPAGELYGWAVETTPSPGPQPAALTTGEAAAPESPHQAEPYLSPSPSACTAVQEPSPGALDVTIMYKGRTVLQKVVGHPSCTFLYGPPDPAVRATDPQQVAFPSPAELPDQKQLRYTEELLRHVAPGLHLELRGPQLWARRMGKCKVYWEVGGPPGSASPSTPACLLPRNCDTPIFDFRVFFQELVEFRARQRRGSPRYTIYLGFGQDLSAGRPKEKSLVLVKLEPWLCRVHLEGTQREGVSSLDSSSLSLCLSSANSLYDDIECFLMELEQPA
Oligonucleotide	fitted relative affinity [z-score]
TTCGGTCTCGGTTTCGGTTAGTGCTAG	7.23
GACGGACTGGACACTGGGGAAGTGCTA	-1
TCATCTCCGGGGTCTGTGACTGTGCTA	0.445
TTAGATATCACACTGGATTAGTGCTAG	0.161
TCAGTGATCAGTCTGATACTGTGCTAG	0.195
TTAGGACTGCTTTTCCTTTTGTGCTAG	2.42
AAGGTAGCACTTCACAGCAAGTGCTAG	-0.549
TCAACACTAGTTTTTACACTGTGCTAG	0.58
TTAGGACTGGGTCTCGGTTCGTGCTAG	0.505
TAAGGTCTCGGACTGGGTTAGTGCTAG	-0.347
TTAGATCTCCGTATCGATTAGTGCTAG	0.635
GACGGTATCGGGACTGGGGAGGTGCTA	-0.327
TTAGTTCTCCTTTTCCTTTAGTGCTAG	3.12
GACGGTCTGCTTTTCCTGACGTGCTAG	0.852
TCAGGTCTCGGTCTCGGTTAGTGCTAG	1.12
TTGGGTTTCCTTTTCCTTTAGTGCTAG	5.81
TTAGATCTCAGTCTCTATTAGTGCTAG	0.266
TTAGGTTTCCATATCCTTTAGTGCTAG	2.79
TTAGGTATCGGGAGTGGGTTAGTGCTA	-0.366
GACGGTATCGACTATCGGAACGTGCTA	0.0431
TAAGAACTGGGGTATCGATTAGTGCTA	-0.17
CTAGGTTTCGGTCTCGGTTAGTGCTAG	6.74
TCAGCTATTTTATATGCTACTGTGCTA	0.32
TCAAGCATTACTTTAGGACTGTGCTAG	-0.0853
GACGGTCTTCTTATCCTGACGTGCTAG	0.852

Series 4 — method: DHFR PCA, deep sequencing; sample: yeast; together with: (+)-ABA 710 µM; reference: wild-type fitted maximum; direction: higher = stronger binding
Target: ABI1, truncated, D143A, DHFR fusion (Arabidopsis thaliana)
Notes: methotrexate growth selection, single substitutions
Starting sequence: PYL1, truncated, DHFR fusion (Arabidopsis thaliana); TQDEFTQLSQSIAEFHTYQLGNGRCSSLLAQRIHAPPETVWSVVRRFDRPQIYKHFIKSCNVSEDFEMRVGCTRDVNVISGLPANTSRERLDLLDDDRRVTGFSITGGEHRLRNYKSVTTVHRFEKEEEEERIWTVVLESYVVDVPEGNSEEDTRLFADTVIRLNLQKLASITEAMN
Change	relative binding score
Q31G	66%
W41N	-19.2%
V40C	78.4%
E130P	114%
Q167I	95.9%
G107V	39.5%
R132D	118%
G71W	46.1%
L93M	87.2%
V62I	95.2%
D95T	42.4%
A13R	99.3%
P146Q	64.4%
V43C	91.1%
C25N	43%
W41I	-22.9%
D95C	102%
E139F	53.1%

Repeated from above (series 2):
partner	notes	reference	positive tests
ARF2 727-859 (Arabidopsis thaliana, UniProt Q94JM3)	–	out of 4 tests	0
IAA31 (Arabidopsis thaliana, UniProt Q8H174)	–	out of 2 tests	1
ARF19 948-1086 (Arabidopsis thaliana, UniProt Q8RYC8)	–	out of 4 tests	4
ARF17 (Arabidopsis thaliana, UniProt Q84WU6)	weak activation fusion	out of 4 tests	0
ARF18 482-602 (Arabidopsis thaliana, UniProt Q9C5W9)	–	out of 4 tests	1
IAA29 (Arabidopsis thaliana, UniProt Q93WC4)	–	out of 4 tests	0
ARF9 519-638 (Arabidopsis thaliana, UniProt Q9XED8)	weak activation fusion	out of 4 tests	1
